Published values pooled from the literature.
A part holds a random share of what one study measured.
Chain of UniProt Q13177 (whole entry, looked up): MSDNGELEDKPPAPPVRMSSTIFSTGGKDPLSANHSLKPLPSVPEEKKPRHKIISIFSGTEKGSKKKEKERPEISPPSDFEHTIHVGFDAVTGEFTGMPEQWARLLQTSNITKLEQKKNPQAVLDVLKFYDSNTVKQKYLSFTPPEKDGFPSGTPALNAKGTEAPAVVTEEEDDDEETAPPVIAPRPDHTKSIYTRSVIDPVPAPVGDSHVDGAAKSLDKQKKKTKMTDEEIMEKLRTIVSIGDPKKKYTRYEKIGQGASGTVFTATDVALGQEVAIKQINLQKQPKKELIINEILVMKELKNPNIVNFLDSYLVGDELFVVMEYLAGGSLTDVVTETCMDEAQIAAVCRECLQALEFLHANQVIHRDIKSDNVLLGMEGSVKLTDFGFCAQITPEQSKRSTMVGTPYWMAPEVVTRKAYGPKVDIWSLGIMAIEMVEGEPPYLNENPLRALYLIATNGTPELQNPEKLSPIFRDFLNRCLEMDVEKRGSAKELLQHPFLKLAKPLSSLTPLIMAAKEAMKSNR
Chain of UniProt P41240 (whole entry, looked up): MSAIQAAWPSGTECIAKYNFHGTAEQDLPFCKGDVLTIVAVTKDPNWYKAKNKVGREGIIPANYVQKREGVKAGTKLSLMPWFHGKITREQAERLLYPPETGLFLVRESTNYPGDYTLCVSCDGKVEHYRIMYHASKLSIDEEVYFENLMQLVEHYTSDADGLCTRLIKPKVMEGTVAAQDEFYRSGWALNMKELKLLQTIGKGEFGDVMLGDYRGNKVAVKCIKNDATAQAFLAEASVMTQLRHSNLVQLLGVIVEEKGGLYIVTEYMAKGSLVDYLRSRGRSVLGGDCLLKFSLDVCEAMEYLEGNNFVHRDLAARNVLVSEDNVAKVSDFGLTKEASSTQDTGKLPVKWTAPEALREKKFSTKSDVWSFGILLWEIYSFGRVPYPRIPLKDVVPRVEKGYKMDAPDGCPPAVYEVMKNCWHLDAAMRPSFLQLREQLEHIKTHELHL
Chain of UniProt Q9UPE1 (whole entry, looked up): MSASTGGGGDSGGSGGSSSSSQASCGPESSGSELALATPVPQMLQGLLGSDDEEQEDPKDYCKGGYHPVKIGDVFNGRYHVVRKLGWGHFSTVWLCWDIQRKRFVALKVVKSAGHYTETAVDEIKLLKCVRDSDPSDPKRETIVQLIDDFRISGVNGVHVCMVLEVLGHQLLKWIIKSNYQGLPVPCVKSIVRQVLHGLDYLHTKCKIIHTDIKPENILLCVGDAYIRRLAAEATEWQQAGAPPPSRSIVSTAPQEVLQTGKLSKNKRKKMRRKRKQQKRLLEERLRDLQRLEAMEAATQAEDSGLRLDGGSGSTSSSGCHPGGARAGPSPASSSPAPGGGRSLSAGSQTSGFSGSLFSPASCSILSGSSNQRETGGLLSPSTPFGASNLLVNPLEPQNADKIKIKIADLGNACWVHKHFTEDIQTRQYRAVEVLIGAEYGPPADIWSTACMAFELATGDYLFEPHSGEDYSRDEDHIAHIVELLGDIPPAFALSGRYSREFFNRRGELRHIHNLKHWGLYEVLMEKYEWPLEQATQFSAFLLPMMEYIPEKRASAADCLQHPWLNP
Chain of UniProt P51813 (whole entry, looked up): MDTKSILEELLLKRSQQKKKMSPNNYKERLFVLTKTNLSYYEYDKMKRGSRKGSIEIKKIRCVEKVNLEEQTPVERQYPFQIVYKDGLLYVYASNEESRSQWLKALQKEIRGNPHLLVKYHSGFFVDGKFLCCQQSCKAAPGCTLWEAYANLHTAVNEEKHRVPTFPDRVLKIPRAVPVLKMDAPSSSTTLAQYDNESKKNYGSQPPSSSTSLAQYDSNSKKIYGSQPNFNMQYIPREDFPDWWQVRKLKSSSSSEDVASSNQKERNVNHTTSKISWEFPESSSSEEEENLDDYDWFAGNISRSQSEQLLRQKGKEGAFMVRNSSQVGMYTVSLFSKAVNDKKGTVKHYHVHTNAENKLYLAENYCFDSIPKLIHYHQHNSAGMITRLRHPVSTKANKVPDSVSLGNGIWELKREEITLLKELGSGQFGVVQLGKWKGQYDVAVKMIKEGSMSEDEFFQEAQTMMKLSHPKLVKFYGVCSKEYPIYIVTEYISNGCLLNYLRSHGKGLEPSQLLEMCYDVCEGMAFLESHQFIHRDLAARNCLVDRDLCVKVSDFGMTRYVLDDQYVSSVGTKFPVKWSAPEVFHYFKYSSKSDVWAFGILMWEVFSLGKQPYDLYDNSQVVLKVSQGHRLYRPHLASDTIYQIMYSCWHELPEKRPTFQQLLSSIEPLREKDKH
Chain of UniProt P43250 (whole entry, looked up): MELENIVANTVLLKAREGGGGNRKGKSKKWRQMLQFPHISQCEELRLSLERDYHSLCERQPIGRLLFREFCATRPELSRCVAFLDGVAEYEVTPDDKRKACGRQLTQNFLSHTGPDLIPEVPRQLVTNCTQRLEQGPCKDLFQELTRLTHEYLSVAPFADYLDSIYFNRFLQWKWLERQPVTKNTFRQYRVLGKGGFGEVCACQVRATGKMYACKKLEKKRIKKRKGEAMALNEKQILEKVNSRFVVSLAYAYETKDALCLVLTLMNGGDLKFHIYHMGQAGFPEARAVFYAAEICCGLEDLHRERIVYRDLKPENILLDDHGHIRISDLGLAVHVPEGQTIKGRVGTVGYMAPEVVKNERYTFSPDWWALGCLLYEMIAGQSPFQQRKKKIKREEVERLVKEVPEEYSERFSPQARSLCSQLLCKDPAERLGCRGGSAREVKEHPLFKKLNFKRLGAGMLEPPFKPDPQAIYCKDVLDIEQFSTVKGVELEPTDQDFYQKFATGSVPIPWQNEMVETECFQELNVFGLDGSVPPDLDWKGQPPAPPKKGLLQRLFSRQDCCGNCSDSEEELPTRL
Chain of UniProt Q9UQB9 (whole entry, looked up): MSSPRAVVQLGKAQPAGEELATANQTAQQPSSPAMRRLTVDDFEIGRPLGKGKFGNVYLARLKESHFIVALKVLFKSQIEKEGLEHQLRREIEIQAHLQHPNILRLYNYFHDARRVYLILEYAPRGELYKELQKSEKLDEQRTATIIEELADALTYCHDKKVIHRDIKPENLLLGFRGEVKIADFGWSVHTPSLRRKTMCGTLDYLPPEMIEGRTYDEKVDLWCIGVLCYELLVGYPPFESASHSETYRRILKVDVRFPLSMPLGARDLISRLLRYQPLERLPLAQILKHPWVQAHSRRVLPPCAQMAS

Set 1 — SMILES: CC(C)(O)c1cncc(-c2nc3ccc(F)cc3n2C2CC2)c1; observed: binding; technique: radioligand binding; concentration: 10 µM
It gave 63.1% for inhibition (5-hydroxytryptamine receptor 2B (HTR2B, Homo sapiens, UniProt P41595)).
For 5-hydroxytryptamine receptor 5A (HTR5A, Homo sapiens, UniProt P47898): inhibition read -9.57%.
The inhibition was -6.88% (5-hydroxytryptamine receptor 3A (HTR3A, Homo sapiens, UniProt P46098)).

Set 2 — host: human; medium: microsomes or S9; concentration: 2 µM; time: 0.5 h
COC(=O)[C@@H](OC(C)(C)C)c1c(C)nc2c(c1Cl)CCN(Cc1ccc(OC)cc1)C2=O gave a remaining compound of 35.4%.
For Cc1nc(Oc2ccc3c(c2)OCO3)c2c3c(sc2n1)CCC3, the remaining compound was 0.308%.
CC(C)/N=C1\ON(C(C)C)C(C)(C)N1c1ccccc1 has a remaining compound of 0.118%.
COc1c(C)cnc(CN2CCC(NC(=O)OC(C)(C)C)CC2)c1C gave a remaining compound of 92.1%.
With Clc1ccccc1C1(c2ccnc(C3CCCC3)n2)CCNCC1 the remaining compound was 39.4%.
O=C(O)CCc1nnc2[nH]c3ccccc3n2c1=O has a remaining compound of 70.3%.
CCc1noc(C2(NC(=O)C3CCCC3)CCCCC2)n1 has a remaining compound of > 100%.
The remaining compound of CC1(C)Cc2c(sc3c2c(=O)n(C2CCCCC2)c(=O)n3CC(=O)NCc2ccccc2)CO1 is reported as 51.8%.
O=C(c1cc2ncccn2n1)N(c1ccccc1)c1ccccc1 gave a remaining compound of 26.2%.
For COCCn1c(CCNC(=O)C2CCCN(c3ncccn3)C2)nc2ccccc21 (stereo not drawn), the remaining compound was 5.61%.
The remaining compound of COc1cc(=O)n(C)cc1C(=O)N1CCN(c2ccccc2Cl)CC1 is reported as 80.9%.
For COc1cc2c(=O)n(CCO)c(=O)n(CCCN(C)C)c2cc1OC, the remaining compound was 71.8%.
For COc1ccc(C2N(C(C)=O)c3ccccc3N2S(=O)(=O)c2ccc(C)cc2)cc1 (stereo not drawn), the remaining compound was 0%.

Set 3 — Compound: COc1cccc(-c2cc(=O)c3ccccc3o2)c1N; observed: enzyme activity; mode: inhibitor; concentration: 0.5 µM; baseline: control
The remaining activity was 96.3% (Receptor-type tyrosine-protein kinase FLT3 (FLT3, Homo sapiens, UniProt P36888)).
The remaining activity was 103% (Cytoplasmic tyrosine-protein kinase BMX (BMX, Homo sapiens, UniProt P51813)).
For Fibroblast growth factor receptor 4 (FGFR4, Homo sapiens, UniProt P22455): remaining activity read 104%.
The remaining activity was 82.4% (Protein kinase C epsilon type (PRKCE, Homo sapiens, UniProt Q02156)).
Serine/threonine-protein kinase PAK 2 (PAK2, Homo sapiens, UniProt Q13177) — remaining activity: 104%.
It gave 99.6% for remaining activity (Beta-adrenergic receptor kinase 1 (GRK2, Homo sapiens, UniProt P25098)).
Glycogen synthase kinase-3 alpha (GSK3A, Homo sapiens, UniProt P49840) — remaining activity: 97%.
It gave 91% for remaining activity (SRSF protein kinase 3 (SRPK3, Homo sapiens, UniProt Q9UPE1)).
The remaining activity was 98% (Ribosomal protein S6 kinase beta-1 (RPS6KB1, Homo sapiens, UniProt P23443)).
The remaining activity was 98.1% (NUAK family SNF1-like kinase 1 (NUAK1, Homo sapiens, UniProt O60285)).
Myosin light chain kinase, smooth muscle (MYLK, Homo sapiens, UniProt Q15746) — remaining activity: 98.9%.
The remaining activity was 98.6% (Ephrin type-A receptor 7 (EPHA7, Homo sapiens, UniProt Q15375)).
Ribosomal protein S6 kinase alpha-1 (RPS6KA1, Homo sapiens, UniProt Q15418) — remaining activity: 92.7%.
The remaining activity was 88% (Ephrin type-B receptor 2 (EPHB2, Homo sapiens, UniProt P29323)).
It gave 101% for remaining activity (Macrophage colony-stimulating factor 1 receptor (CSF1R, Homo sapiens, UniProt P07333)).
The remaining activity was 100% (Protein kinase C gamma type (PRKCG, Homo sapiens, UniProt P05129)).
For Serine/threonine-protein kinase Sgk1 (SGK1, Homo sapiens, UniProt O00141): remaining activity read 102%.
Aurora kinase C (AURKC, Homo sapiens, UniProt Q9UQB9) — remaining activity: 95.3%.
Serine/threonine-protein kinase pim-2 (PIM2, Homo sapiens, UniProt Q9P1W9) — remaining activity: 99.3%.
For G protein-coupled receptor kinase 6 (GRK6, Homo sapiens, UniProt P43250): remaining activity read 90.7%.
For Tyrosine-protein kinase CSK (CSK, Homo sapiens, UniProt P41240): remaining activity read 83.7%.

Set 4 — SMILES: C=CCc1ccc(O)c(-c2ccc(O)c(CC=C)c2)c1
ANO1 del476-501: Anoctamin-1 (ANO1, Homo sapiens, UniProt Q5XXA6, del476-501)
Chain of UniProt Q5XXA6 (whole entry, unmodified, looked up): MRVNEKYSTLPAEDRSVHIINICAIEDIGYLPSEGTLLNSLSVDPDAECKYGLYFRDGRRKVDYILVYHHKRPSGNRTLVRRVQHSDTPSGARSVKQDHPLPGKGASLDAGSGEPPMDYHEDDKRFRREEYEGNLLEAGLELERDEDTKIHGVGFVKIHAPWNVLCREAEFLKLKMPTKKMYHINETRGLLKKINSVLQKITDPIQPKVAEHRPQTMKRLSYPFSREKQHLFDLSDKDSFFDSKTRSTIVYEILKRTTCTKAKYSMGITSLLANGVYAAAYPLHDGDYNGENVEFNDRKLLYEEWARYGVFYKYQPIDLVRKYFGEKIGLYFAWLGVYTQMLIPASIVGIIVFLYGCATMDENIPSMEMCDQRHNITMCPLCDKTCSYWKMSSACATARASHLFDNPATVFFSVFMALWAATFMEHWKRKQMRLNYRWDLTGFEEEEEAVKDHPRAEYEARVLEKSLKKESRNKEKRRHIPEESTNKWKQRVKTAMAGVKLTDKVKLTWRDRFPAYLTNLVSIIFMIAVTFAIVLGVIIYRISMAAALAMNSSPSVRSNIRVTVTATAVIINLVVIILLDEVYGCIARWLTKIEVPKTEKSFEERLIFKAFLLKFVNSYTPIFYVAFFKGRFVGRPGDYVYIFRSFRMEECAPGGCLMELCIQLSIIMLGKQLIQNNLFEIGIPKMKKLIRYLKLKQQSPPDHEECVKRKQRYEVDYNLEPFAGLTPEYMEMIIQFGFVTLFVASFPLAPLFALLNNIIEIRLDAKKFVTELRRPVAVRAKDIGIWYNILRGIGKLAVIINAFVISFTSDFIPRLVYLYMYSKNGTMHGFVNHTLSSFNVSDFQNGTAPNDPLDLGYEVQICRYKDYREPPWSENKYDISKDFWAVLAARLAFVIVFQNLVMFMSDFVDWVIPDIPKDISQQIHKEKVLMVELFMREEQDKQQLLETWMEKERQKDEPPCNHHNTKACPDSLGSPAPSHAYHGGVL
ANO1 del476-501/F628A: Anoctamin-1 (ANO1, Homo sapiens, UniProt Q5XXA6, del476-501/F628A)
ANO1 del476-501/E659A/K629A: Anoctamin-1 (ANO1, Homo sapiens, UniProt Q5XXA6, del476-501/E659A/K629A)
It gave -0.673 for normalized current (ANO1 del476-501; chloride current, whole-cell voltage clamp; 1 µM, wild type, I-V at -80 mV, added: 4 µM Ca2+).
It gave -0.275 for normalized current (ANO1 del476-501; chloride current, whole-cell voltage clamp; 3 µM, wild type, concentration-response at -40 mV, added: 4 µM Ca2+).
It gave -0.053 for normalized current (ANO1 del476-501; chloride current, whole-cell voltage clamp; 30 µM, wild type, I-V at -80 mV, added: 4 µM Ca2+).
ANO1 del476-501/F628A; chloride current, whole-cell voltage clamp; 100 µM, I-V at -20 mV, added: 4 µM Ca2+ — normalized current: -0.0419.
It gave 0.464 for normalized current (Anoctamin-1 (ANO1, Homo sapiens, UniProt Q5XXA6, del476-501/E649A); ion current, inside-out patch clamp; 10 µM, E623A mutant at 60 mV).
ANO1 del476-501/F628A; chloride current, whole-cell voltage clamp; 30 µM, I-V at -20 mV, added: 4 µM Ca2+ — normalized current: -0.0801.
It gave -0.578 for normalized current (ANO1 del476-501/E659A/K629A; chloride current, inside-out patch clamp; 10 µM, membrane voltage -60 mV).
ANO1 del476-501; chloride current, whole-cell voltage clamp; 30 µM, wild type, I-V at 100 mV, added: 4 µM Ca2+ — normalized current: 0.0753.
For Anoctamin-1 (ANO1, Homo sapiens, UniProt Q5XXA6, del476-501/E649A/R541A); chloride current, inside-out patch clamp; 10 µM, membrane voltage -40 mV: normalized current read -0.173.
ANO1 del476-501; chloride current, whole-cell voltage clamp; 30 µM, wild type, I-V at -20 mV, added: 4 µM Ca2+ — normalized current: -0.0127.
It gave 1 for normalized current (ANO1 del476-501/E659A/K629A; chloride current, inside-out patch clamp; 10 µM, membrane voltage 120 mV).
ANO1 del476-501; chloride current, whole-cell voltage clamp; 30 µM, wild type, concentration-response at 20 mV, added: 4 µM Ca2+ — normalized current: 0.0131.
For Anoctamin-1 (ANO1, Homo sapiens, UniProt Q5XXA6, del476-501/E659A); chloride current, inside-out patch clamp; 10 µM, membrane voltage 120 mV: normalized current read 1.
ANO1 del476-501/F628A; chloride current, whole-cell voltage clamp; 1 µM, concentration-response at 20 mV, added: 4 µM Ca2+ — normalized current: 0.19.

Some of these lines once more (set 3):
The remaining activity was 98.6% (Ephrin type-A receptor 7 (EPHA7, Homo sapiens, UniProt Q15375)).
Serine/threonine-protein kinase pim-2 (PIM2, Homo sapiens, UniProt Q9P1W9) — remaining activity: 99.3%.
The remaining activity was 82.4% (Protein kinase C epsilon type (PRKCE, Homo sapiens, UniProt Q02156)).
The remaining activity was 98% (Ribosomal protein S6 kinase beta-1 (RPS6KB1, Homo sapiens, UniProt P23443)).
The remaining activity was 96.3% (Receptor-type tyrosine-protein kinase FLT3 (FLT3, Homo sapiens, UniProt P36888)).
It gave 99.6% for remaining activity (Beta-adrenergic receptor kinase 1 (GRK2, Homo sapiens, UniProt P25098)).
